# Measurements pooled from the literature.
# Cell line: CCRF-CEM
Structure (SMILES),assay,setting,how to read,measurement,result
CC(=C(c1ccc(O)cc1)c1ccc(Cl)cc1)c1ccc(Cl)cc1,cell growth or viability,,,GI50,790 nM
CC/C=C\C/C=C\C/C=C\C/C=C\C/C=C\C/C=C\CCC(=O)Nc1ccn(C2OC(CO)C(O)C2(F)F)c(=O)n1 (stereo not drawn),NCI60 screen,,,TGI,17.9 µM
COc1cc(CNC(=O)C[C@H](C)CCC=C(C)C)ccc1OCc1cn(-c2ccccc2F)nn1,SRB,"10 µM, 48 h",,growth,97.3%
COc1ccc2c(c1)/C(=N\Nc1nnc3n1N=C(c1ccccc1)CS3)C(=O)N2,"cell growth or viability, SRB",10 µM,,inhibition,51%
CCOc1ccccc1-c1nnc2n1N=C(c1ccc(N3CCC3)cc1)CS2,"cell migration, Transwell migration",,,EC50,180 nM
Nc1ccn([C@@H]2O[C@H](CSSc3ccccn3)[C@@H](O)[C@H](F)[C@H]2O)c(=O)n1,cell growth or viability,,,IC50,> 500 µM
CC(=O)OC[C@H]1O[C@@H](Sc2sc(C(=O)c3ccc(Br)cc3)c(N)c2-c2nc3ccccc3s2)[C@H](OC(C)=O)[C@@H](OC(C)=O)[C@@H]1OC(C)=O,SRB,"10 µM, 48 h",,growth,44.1%
CCOc1ccccc1-c1nnc2n1N=C(c1ccc(N3CCCC3)cc1)CS2,"cell migration, Transwell migration",,,EC50,400 nM
COc1ccc(C2=Nn3c(NN=C4C(=O)N(Cc5ccccc5)c5ccc(Cl)cc54)nnc3SC2)cc1,"cell growth or viability, SRB",10 µM,,inhibition,46%
COc1cc(CNC(=O)C[C@H](C)CCC=C(C)C)ccc1O,SRB,"10 µM, 48 h",,growth,70.6%
C(=C/c1ccccc1)/c1ccccc1,"apoptosis, flow cytometry, refers to: caspase 3 activity",24 h,relative to: vehicle,lowest effective concentration,50 µM
CC(Cc1ccc(Cl)cc1)=C(c1ccc(Cl)cc1)c1ccc(OCCN(C)C)cc1,cell growth or viability,,,GI50,4170 nM
COc1cc(CNC(=O)C[C@H](C)CCC=C(C)C)ccc1OCc1cn(-c2ccccc2)nn1,SRB,"10 µM, 48 h",,growth,59.4%
CCOc1ccccc1-c1nnc2n1N=C(c1ccc(N3CCCC3=O)cc1)CS2,"cell migration, Transwell migration",,,EC50,220 nM
COc1cc(CNC(=O)C[C@H](C)CCC=C(C)C)ccc1OCc1cn(-c2ccc(Br)cc2)nn1,SRB,"10 µM, 48 h",,growth,61.1%
CC(=O)OC[C@H]1O[C@@H](Sc2sc(C(=O)c3ccc(C)cc3)c(N)c2-c2nc3ccccc3s2)[C@H](OC(C)=O)[C@@H](OC(C)=O)[C@@H]1OC(C)=O,SRB,"10 µM, 48 h",,growth,60.5%
COc1cc(CNC(=O)C[C@H](C)CCC=C(C)C)ccc1OCc1cn(-c2ccccc2Cl)nn1,SRB,"10 µM, 48 h",,growth,40.1%
O=C(Nc1ccn([C@@H]2O[C@H](CO)[C@@H](O)[C@H](F)[C@H]2O)c(=O)n1)c1ccccc1,cell growth or viability,,,IC50,> 200 µM

# Repeated from above:
Structure (SMILES),assay,setting,how to read,measurement,result
CC/C=C\C/C=C\C/C=C\C/C=C\C/C=C\C/C=C\CCC(=O)Nc1ccn(C2OC(CO)C(O)C2(F)F)c(=O)n1 (stereo not drawn),NCI60 screen,,,TGI,17.9 µM
COc1cc(CNC(=O)C[C@H](C)CCC=C(C)C)ccc1OCc1cn(-c2ccccc2F)nn1,SRB,"10 µM, 48 h",,growth,97.3%
